Results from different studies.
Every numbered part comes from another study and shows a few of its results, in no order.
Chain of UniProt Q14680 (whole entry, looked up): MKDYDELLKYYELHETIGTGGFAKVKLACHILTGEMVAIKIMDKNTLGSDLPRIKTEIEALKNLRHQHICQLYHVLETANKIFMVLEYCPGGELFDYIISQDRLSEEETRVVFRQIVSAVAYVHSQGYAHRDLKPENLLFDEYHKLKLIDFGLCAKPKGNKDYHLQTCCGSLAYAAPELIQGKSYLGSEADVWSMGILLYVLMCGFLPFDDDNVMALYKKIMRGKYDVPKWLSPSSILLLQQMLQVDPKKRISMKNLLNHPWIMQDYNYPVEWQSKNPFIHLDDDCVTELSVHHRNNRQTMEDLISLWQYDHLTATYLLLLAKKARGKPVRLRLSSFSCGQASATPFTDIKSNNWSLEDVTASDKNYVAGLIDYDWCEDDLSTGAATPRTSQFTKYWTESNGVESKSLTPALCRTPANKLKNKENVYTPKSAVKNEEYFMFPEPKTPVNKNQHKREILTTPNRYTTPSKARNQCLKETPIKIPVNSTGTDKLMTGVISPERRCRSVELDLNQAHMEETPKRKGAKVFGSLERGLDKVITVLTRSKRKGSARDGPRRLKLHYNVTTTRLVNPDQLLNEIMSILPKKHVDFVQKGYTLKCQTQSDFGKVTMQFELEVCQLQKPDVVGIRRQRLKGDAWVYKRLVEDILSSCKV
Chain of UniProt Q9UK32 (whole entry, looked up): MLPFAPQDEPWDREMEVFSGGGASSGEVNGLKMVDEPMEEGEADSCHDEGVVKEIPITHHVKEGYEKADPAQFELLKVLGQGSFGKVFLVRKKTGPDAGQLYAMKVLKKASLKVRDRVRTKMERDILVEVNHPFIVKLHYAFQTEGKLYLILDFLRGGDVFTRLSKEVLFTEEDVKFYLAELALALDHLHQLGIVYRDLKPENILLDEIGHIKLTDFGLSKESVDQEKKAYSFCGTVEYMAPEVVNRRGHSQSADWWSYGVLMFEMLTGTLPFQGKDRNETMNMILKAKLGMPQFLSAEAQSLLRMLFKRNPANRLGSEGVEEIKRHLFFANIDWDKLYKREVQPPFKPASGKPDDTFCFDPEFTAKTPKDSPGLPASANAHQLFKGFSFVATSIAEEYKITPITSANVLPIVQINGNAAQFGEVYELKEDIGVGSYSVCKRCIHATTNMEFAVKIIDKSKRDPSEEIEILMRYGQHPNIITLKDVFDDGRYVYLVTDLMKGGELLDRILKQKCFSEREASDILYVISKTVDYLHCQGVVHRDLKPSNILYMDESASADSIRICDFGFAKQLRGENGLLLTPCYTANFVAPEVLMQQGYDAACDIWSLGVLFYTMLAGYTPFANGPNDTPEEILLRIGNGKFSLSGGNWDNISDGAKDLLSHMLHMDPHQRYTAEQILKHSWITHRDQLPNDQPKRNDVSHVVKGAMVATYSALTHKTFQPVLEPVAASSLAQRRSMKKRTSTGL
Chain of UniProt Q6ZN16 (whole entry, looked up): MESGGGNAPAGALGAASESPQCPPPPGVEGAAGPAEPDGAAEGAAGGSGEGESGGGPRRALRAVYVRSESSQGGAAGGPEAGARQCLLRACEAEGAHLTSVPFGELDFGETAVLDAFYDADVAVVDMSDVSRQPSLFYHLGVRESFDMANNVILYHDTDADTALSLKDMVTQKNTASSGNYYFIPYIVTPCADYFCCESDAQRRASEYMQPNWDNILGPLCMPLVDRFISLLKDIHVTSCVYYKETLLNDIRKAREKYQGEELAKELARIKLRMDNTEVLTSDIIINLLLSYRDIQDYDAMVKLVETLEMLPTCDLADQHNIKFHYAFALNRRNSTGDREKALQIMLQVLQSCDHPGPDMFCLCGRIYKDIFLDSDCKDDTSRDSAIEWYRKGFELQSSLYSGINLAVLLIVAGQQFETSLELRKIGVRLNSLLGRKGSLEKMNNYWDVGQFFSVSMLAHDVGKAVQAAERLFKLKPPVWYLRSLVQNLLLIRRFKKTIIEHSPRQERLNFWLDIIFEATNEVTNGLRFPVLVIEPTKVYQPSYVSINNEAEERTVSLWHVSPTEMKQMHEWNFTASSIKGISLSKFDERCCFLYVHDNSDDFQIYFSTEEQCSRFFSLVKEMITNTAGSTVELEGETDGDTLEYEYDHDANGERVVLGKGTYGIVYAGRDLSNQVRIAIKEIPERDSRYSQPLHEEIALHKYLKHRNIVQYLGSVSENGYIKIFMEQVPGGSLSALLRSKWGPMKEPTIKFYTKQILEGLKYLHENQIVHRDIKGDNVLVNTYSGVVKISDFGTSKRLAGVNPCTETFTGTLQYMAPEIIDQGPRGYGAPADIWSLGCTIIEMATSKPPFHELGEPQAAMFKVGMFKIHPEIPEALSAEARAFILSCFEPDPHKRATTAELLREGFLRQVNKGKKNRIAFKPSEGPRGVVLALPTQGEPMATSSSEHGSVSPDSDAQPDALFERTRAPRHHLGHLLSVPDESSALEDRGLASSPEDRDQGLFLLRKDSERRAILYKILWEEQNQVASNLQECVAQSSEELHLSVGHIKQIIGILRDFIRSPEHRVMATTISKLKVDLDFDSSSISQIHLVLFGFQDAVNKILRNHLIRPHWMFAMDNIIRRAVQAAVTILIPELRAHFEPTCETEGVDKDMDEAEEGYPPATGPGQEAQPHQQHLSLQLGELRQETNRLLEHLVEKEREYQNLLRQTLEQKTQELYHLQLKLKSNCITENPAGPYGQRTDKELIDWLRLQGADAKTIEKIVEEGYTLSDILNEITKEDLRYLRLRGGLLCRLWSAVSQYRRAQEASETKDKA
Chain of UniProt P08631 (whole entry, looked up): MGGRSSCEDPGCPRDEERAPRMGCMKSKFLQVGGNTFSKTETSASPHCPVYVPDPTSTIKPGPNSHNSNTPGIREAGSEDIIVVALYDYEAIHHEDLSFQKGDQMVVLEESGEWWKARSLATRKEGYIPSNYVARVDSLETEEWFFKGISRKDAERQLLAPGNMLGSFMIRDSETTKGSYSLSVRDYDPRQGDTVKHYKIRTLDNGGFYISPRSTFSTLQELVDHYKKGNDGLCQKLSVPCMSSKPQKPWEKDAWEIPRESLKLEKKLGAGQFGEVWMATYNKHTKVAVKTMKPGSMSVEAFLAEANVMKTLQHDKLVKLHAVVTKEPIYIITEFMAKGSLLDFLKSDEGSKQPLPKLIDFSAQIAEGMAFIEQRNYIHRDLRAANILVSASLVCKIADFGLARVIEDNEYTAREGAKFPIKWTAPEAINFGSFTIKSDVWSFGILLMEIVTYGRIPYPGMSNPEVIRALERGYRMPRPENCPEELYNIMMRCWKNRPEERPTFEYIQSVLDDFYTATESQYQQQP
Chain of UniProt O75716 (whole entry, looked up): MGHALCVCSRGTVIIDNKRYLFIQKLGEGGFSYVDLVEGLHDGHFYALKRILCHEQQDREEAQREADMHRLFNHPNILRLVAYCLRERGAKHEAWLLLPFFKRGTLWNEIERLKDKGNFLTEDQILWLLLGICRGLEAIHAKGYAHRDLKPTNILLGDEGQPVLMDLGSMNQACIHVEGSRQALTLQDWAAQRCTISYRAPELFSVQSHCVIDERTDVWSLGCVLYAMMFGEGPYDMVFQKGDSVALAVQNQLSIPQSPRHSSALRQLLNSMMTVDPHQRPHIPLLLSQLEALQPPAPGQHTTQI
Chain of UniProt Q86YV6 (whole entry, looked up): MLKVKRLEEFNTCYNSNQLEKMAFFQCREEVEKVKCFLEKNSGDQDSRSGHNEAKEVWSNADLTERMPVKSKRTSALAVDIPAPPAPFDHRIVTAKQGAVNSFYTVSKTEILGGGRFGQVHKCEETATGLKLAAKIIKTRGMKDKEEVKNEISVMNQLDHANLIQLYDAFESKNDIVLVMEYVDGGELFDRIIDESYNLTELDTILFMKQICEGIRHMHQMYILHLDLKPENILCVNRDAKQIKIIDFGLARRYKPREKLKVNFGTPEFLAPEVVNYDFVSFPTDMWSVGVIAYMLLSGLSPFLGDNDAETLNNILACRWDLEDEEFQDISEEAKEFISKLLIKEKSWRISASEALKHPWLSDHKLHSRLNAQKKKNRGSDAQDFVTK

Set 1 — technique: competition with immobilised ligand; tested at: 1 µM; quantity: remaining binding
SMILES: C[C@H](c1ccc(F)cc1)N(Cc1cccc(C(=O)O)c1)C(=O)c1cnc2ccccc2c1
CDK13 (Homo sapiens, UniProt Q14004); cell-free assay: 98%
SRC (Homo sapiens, UniProt P12931); cell-free assay: 100%
EGFR (Homo sapiens, UniProt P00533, T790M); cell-free assay: 100%
SBK1 (Homo sapiens, UniProt Q52WX2); cell-free assay: 92%
MELK (Homo sapiens, UniProt Q14680); cell-free assay: 100%
MYLK4 (Homo sapiens, UniProt Q86YV6); cell-free assay: 99%
HCK (Homo sapiens, UniProt P08631); cell-free assay: 88%
MAP3K15 (Homo sapiens, UniProt Q6ZN16); cell-free assay: 100%
CSNK1D (Homo sapiens, UniProt P48730); cell-free assay: 92%
BMPR1B (Homo sapiens, UniProt O00238); cell-free assay: 95%
FLT3 (Homo sapiens, UniProt P36888, D835H); cell-free assay: 84%
Ribosomal protein S6 kinase alpha-6, C-terminal kinase domain (RPS6KA6, Homo sapiens, UniProt Q9UK32); cell-free assay: 100%
Non-receptor tyrosine-protein kinase TYK2, JH1 (TYK2, Homo sapiens, UniProt P29597); cell-free assay: 100%
CSNK1A1L (Homo sapiens, UniProt Q8N752); cell-free assay: 100%
DMPK (Homo sapiens, UniProt Q09013); cell-free assay: 88%
STK16 (Homo sapiens, UniProt O75716); cell-free assay: 100%
Tyrosine-protein kinase ABL1, non-phosphorylated (ABL1, Homo sapiens, UniProt P00519, F317L); cell-free assay: 91%
MAP3K6 (Homo sapiens, UniProt O95382); cell-free assay: 84%
Ribosomal protein S6 kinase alpha-2, N-terminal kinase domain (RPS6KA2, Homo sapiens, UniProt Q15349); cell-free assay: 100%
MET (Homo sapiens, UniProt P08581, Y1235D); cell-free assay: 100%
TXK (Homo sapiens, UniProt P42681); binding: 100%
NEK3 (Homo sapiens, UniProt P51956); cell-free assay: 87%
Receptor-type tyrosine-protein kinase FLT3, autoinhibited (FLT3, Homo sapiens, UniProt P36888); cell-free assay: 100%
ERN1 (Homo sapiens, UniProt O75460); cell-free assay: 78%
WNK3 (Homo sapiens, UniProt Q9BYP7); cell-free assay: 87%

Set 2 — host: human; matrix: microsomes or S9; tested at: 2 µM; time: 0.5 h; quantity: remaining compound
CCOC(=O)C1CCN(C(=O)CCC(=O)N2CCCn3nc(-c4cn(C)c5ccccc45)cc32)CC1: 0.76%
CC(C)n1c(CNC(=O)c2cc(-c3ccco3)n[nH]2)nc2ccccc21: 78.3%
CC1=NOC(C)(CNC(=O)c2cc(C)ccc2C)C1 (stereo not shown): 73.8%
Cc1cc(C)n2nc(C(=O)N3C[C@@H](N)C[C@H]3C(=O)NC(C)C)cc2n1: 82.3%
CC(C)COc1cc(=O)n2c(c1C(=O)NCCCn1cccn1)CCCCC2: 57.2%
O=C(NCC1(c2cccs2)CCOCC1)c1ccc2ncsc2c1: 12.8%
CCOc1ccc(S(=O)(=O)Nc2cnc3ccccc3c2)cc1: 63.8%
Cc1oc(-c2cccc(F)c2F)nc1CN(C)CC1CCCNC1 (stereo not shown): 93.5%
COC(=O)C1CCN(C(=O)c2ccccc2N(C)S(C)(=O)=O)CC1: 46.9%
c1cc2c(cc1C1CCCCC1)c1c3n2CCN=C3NCC1: 99.5%
OC(CN1CCCC1CC1CCCCC1)Cn1cccn1 (stereo not shown): 55.2%
CCOc1ccsc1C1=NOC(C)(COCc2c(Cl)cccc2Cl)C1 (stereo not shown): 1.81%

Set 3 — cell line: mouse MPNST tumor cells; technique: high-content immunofluorescence imaging; refers to: nuclear SOX9; tested at: 10 µM; time: 12 h; notes: mean of 2 replicates; relative to: DMSO control; reading: higher = more nuclear SOX9; quantity: nuclear SOX9 intensity
CC(C)[C@H](NS(=O)(=O)c1ccc(-c2ccc(Br)cc2)cc1)C(=O)O: 91.7 % of DMSO
CC(C)C[C@@H](C(=O)N[C@H](C(=O)OC1CCCC1)c1ccccc1)[C@H](O)C(=O)NO: 142 % of DMSO
CC(=O)c1cc([N+](=O)[O-])c(Sc2ccc(F)cc2F)s1: 71.2 % of DMSO
CC(C)c1cc(-c2ccc(F)c3ccccc23)nc(N)n1: 112 % of DMSO
CCC(=O)NC1CCc2cccc(OC)c2C1 (stereo not shown): 121 % of DMSO
O=C(CCCN1CC=C(n2c(=O)[nH]c3ccccc32)CC1)c1ccc(F)cc1: 96.8 % of DMSO
O=C(O)CNC(=O)C(CS)Cc1ccccc1 (stereo not shown): 88.9 % of DMSO
O=C(O)c1ccccc1NC(=O)N1CCC(c2ccccc2C(F)(F)F)CC1: 121 % of DMSO

Set 4 — read-out: enzyme activity; action: inhibitor; tested at: 0.5 µM; relative to: control; quantity: remaining activity
Target: Dual serine/threonine and tyrosine protein kinase (DSTYK, Homo sapiens, UniProt Q6XUX3)
Chain of UniProt Q6XUX3 (whole entry, looked up): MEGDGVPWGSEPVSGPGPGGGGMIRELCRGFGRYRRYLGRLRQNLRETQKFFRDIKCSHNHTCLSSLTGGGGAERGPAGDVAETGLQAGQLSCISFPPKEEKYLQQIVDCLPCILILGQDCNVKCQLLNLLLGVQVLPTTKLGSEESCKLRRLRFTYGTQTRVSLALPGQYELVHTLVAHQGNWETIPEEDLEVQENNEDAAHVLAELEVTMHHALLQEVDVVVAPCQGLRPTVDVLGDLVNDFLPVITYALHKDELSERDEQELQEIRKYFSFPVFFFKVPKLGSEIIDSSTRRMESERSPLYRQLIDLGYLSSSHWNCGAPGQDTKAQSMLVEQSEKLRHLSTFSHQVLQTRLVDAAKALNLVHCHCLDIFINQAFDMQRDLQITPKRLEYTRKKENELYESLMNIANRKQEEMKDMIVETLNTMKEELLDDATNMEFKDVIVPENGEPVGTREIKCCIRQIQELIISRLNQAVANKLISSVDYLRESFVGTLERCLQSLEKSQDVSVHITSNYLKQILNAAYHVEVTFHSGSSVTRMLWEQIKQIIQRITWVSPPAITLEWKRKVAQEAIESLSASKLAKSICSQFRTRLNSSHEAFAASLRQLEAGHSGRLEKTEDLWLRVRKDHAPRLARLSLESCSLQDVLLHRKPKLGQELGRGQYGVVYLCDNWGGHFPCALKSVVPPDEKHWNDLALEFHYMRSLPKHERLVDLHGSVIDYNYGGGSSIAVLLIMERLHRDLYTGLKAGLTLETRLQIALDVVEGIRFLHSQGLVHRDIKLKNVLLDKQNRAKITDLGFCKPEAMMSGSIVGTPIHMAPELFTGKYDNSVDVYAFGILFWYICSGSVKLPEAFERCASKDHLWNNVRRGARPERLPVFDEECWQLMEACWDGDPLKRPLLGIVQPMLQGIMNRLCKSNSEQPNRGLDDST
CCN1/C(=C/C(C)=O)Sc2ccc(OC)cc21: 90.6%
CC(C)c1nn(-c2c(Cl)cccc2Cl)c2nc(Cc3ccc(OCCO)cc3)[nH]c(=O)c12: 93.1%
CC(C)[C@H](CO)Nc1nc(Nc2cccc(Cl)c2)c2ncn(C(C)C)c2n1: 105%
O=c1cc(N2CCOCC2)oc2c1ccc1ccccc12: 110%
Cn1cc(/C=C2\C(=O)Nc3ccc(S(N)(=O)=O)cc32)c2ccccc21: 92.5%
COc1cc2ncnc(Nc3ccc(OCc4ccccc4)cc3)c2cc1OC: 95.9%
CN(C)CCCn1cc(C2=C(c3c[nH]c4ccccc34)C(=O)NC2=O)c2ccccc21: 95%
Cc1ccc(NC(=O)c2ccc(CN3CCN(C)CC3)cc2)cc1Nc1nccc(-c2cccnc2)n1: 97.7%
Cc1nc(Nc2ncc(C(=O)Nc3c(C)cccc3Cl)s2)cc(N2CCN(CCO)CC2)n1: 99.4%
COc1ccc(Cl)cc1NC(=O)Nc1cc(C)nc2ccccc12: 98.8%
Nc1[nH]nc2nnc(-c3c(-c4ccccc4)nn4ccccc34)cc12: 95.9%
O=C1NC(=O)/C(=C/c2ccc3nccnc3c2)S1: 89.9%
CCC(=O)Nc1ccc2ncnc(Nc3cccc(Br)c3)c2c1: 91.3%
CCOc1cc2ncnc(Nc3cccc(Br)c3)c2cc1OCC: 101%
COc1cc2ncc(-c3ccccc3)nc2cc1OC: 82.7%
O=C(Nc1ccc(Cl)cc1)c1ccccc1NCc1ccncc1: 94.7%
Cn1cnc2cc3c(Nc4cccc(Br)c4)ncnc3cc21: 97.5%
COc1cc2ncnc(N3CCN(C(=O)Nc4ccc(Oc5ccccc5)cc4)CC3)c2cc1OC: 113%
CS(=O)(=O)CCNCc1ccc(-c2ccc3ncnc(Nc4ccc(OCc5cccc(F)c5)c(Cl)c4)c3c2)o1: 108%

A few entries again (set 2):
OC(CN1CCCC1CC1CCCCC1)Cn1cccn1 (stereo not shown): 55.2%
CC(C)n1c(CNC(=O)c2cc(-c3ccco3)n[nH]2)nc2ccccc21: 78.3%
CC(C)COc1cc(=O)n2c(c1C(=O)NCCCn1cccn1)CCCCC2: 57.2%
Cc1cc(C)n2nc(C(=O)N3C[C@@H](N)C[C@H]3C(=O)NC(C)C)cc2n1: 82.3%
